Earlier results that unrelated publications cite.
Protocols differ between the studies behind these lines. Numbers after ± are the reported error.
UniProt P41595, sequence (whole entry, looked up): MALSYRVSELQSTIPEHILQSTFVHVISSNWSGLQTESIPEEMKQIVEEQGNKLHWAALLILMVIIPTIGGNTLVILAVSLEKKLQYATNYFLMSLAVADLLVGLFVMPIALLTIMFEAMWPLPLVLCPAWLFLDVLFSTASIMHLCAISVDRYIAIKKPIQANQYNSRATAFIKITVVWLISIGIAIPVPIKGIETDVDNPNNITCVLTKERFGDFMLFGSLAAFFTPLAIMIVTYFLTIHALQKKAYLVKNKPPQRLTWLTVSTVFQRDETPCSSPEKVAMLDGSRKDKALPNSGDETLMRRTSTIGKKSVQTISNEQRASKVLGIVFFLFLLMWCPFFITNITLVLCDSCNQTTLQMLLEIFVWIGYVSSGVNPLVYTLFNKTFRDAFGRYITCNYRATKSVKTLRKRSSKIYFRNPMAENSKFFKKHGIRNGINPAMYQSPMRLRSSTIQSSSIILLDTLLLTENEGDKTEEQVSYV
UniProt P08913, sequence (whole entry, looked up): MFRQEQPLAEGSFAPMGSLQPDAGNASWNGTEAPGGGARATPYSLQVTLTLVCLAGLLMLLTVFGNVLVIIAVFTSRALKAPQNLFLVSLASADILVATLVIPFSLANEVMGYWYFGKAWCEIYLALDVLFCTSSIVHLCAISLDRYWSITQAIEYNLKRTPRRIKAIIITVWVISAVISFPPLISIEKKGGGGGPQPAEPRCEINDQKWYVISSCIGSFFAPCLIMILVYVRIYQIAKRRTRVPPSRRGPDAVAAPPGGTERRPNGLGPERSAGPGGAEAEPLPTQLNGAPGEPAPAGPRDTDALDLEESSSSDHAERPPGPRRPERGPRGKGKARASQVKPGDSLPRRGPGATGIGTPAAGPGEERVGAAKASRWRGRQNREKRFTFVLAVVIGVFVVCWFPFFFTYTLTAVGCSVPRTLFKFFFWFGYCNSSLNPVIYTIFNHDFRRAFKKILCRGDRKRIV
UniProt P41145, sequence (whole entry, looked up): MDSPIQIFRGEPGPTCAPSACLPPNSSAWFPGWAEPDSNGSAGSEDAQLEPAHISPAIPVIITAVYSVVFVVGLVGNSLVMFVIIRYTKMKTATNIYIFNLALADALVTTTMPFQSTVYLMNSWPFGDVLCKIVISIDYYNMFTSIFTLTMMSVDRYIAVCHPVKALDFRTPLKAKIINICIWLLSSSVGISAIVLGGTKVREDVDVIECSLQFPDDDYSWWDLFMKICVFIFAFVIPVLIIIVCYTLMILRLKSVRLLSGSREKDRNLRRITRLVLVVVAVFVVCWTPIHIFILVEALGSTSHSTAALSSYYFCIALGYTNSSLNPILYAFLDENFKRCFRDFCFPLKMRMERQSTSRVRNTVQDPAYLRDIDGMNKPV

O=C(c1ccc(F)cc1)C1CCN(CCn2c(=O)[nH]c3ccccc3c2=O)CC1  Hill coefficient (5-hydroxytryptamine receptor 2B (HTR2B, Homo sapiens, UniProt P41595)): 0.6
CC[C@H](C)C(=O)O[C@H]1C[C@H](O)C=C2C=C[C@H](C)[C@H](CC[C@@H](O)C[C@@H](O)CC(=O)O)[C@H]21  share of hepatic uptake clearance (OATP1B1): 96%
N#CCNC(=O)c1ccc(-c2ccnc(Nc3ccc(N4CCOCC4=O)cc3)n2)cc1  share of plasma radioactivity AUC (human; dose not given, mass balance): 64.2%
Cc1cc(-c2nccc3c2ccn3CC(=O)Nc2ccc(-c3cnccn3)cn2)ccn1  NOEL (dog; concentration not given, 1 month): 30 mg/kg/day
ADDIVEKL  IC50 (Mamu-B*01 macaque; peptide-MHC binding; peptide): 71.8 nM
CC(=O)N1CC[C@@H](NC(=O)[C@@H](N)Cc2c(C)cc(O)cc2C)c2cc(Cc3ccccc3)ccc21  KOR stimulation (Kappa-type opioid receptor (OPRK1, Homo sapiens, UniProt P41145); agonist; concentration not given): 29 ± 4.7%
FLGRIWPS  IC50 (HLA class I histocompatibility antigen, A alpha chain, allele A*69:01 (Homo sapiens, UniProt P04439); peptide-MHC binding; peptide): > 5000 nM
COC(=O)[C@@H]1[C@H]2C[C@H]3c4[nH]c5ccccc5c4CCN3C[C@@H]2CC[C@@H]1O  Hill coefficient (Alpha-2A adrenergic receptor (ADRA2A, Homo sapiens, UniProt P08913)): 0.9

Some of these lines once more:
CC[C@H](C)C(=O)O[C@H]1C[C@H](O)C=C2C=C[C@H](C)[C@H](CC[C@@H](O)C[C@@H](O)CC(=O)O)[C@H]21  share of hepatic uptake clearance (OATP1B1): 96%
